# Published values gathered from unrelated publications.
# Each line is one published result; not all experiments were run side by side.
# Organism: Staphylococcus aureus
Structure (SMILES),assay,test system,conditions,MIC
CC[C@H](C)[C@H](NC(=O)[C@H](CCCCN)NC(=O)[C@@H]1CCCN1C(=O)[C@@H](NC(=O)[C@H](CC(C)C)NC(=O)[C@H](CCCCN)NC(=O)[C@H](CC(C)C)NC(=O)[C@@H](NC(=O)[C@H](CO)NC(=O)CNC(=O)[C@H](Cc1ccccc1)NC(=O)[C@@H](N)Cc1ccccc1)C(C)C)[C@@H](C)CC)C(=O)N[C@@H](CC(C)C)C(N)=O,broth microdilution,USA300 MRSA,,3.12 µM
CC(C)[C@H](NC(=O)[C@H](CCCCN)NC(=O)[C@H](CCCNC(=N)N)NC(=O)[C@@H](NC(=O)[C@H](C)NC(=O)[C@H](CC(N)=O)NC(=O)[C@H](CCCNC(=N)N)NC(=O)[C@@H](NC(=O)[C@H](CCCCN)NC(=O)[C@H](CCCCN)NC(=O)[C@@H](NC(=O)[C@@H](NC(=O)[C@H](CCCNC(=N)N)NC(=O)[C@H](CCCNC(=N)N)NC(=O)[C@H](Cc1c[nH]c2ccccc12)NC(=O)[C@H](Cc1c[nH]c2ccccc12)NC(=O)CN)[C@@H](C)O)C(C)C)C(C)C)C(C)C)C(=O)O,bacterial growth,MRSA clinical isolate,18 h,64 µg/mL
CC[C@H](C)[C@H](NC(=O)[C@H](CC(C)C)NC(=O)[C@H](CCC(N)=O)NC(=O)[C@H](CO)NC(=O)[C@H](CCCNC(=N)N)NC(=O)[C@@H](N)CO)C(=O)N[C@H](C(=O)N[C@@H](Cc1c[nH]cn1)C(=O)N[C@@H](CCC(N)=O)C(=O)N[C@@H](CCCNC(=N)N)C(=O)N[C@@H](CC(C)C)C(=O)N[C@@H](Cc1ccccc1)C(N)=O)C(C)C,broth microdilution,Mueller Hinton broth,,> 400 µg/mL
CCN1CCNC1=[S+][Ag-3]([O][N+](=O)[O-])([P+](c1ccccc1)(c1ccccc1)c1ccccc1)[P+](c1ccccc1)(c1ccccc1)c1ccccc1,agar dilution,methicillin-resistant,"24 h, 37 °C",10 µg/mL
CCCCc1ccc(-c2nc(C)c(C(C)=NNC(=N)N)s2)cc1,,USA500 MRSA,,1.3 µg/mL
CC(C)S[C@H]1[C@H](O)[C@@H](N)[C@@H](O[C@H]2[C@H](O[C@@H]3O[C@H](CO)[C@@H](O[C@H]4O[C@@H](CN)[C@@H](O)[C@H](O)[C@H]4N)[C@H]3O)[C@@H](O)[C@H](N)C[C@@H]2N)O[C@@H]1CO,,"methicillin-resistant, AAC(6') ANT(4',4'') APH(3')",,2 to 4 µg/mL
O=C(O)CC[C@@H]1NC(=O)[C@H](CCC(=O)O)NC(=O)[C@H](CCC(=O)O)NC(=O)[C@H](Cc2c[nH]c3ccccc23)NC(=O)[C@H](Cc2c[nH]c3ccccc23)NC(=O)[C@H](Cc2c[nH]c3ccccc23)NC(=O)[C@H](CCC(=O)O)NC1=O,broth microdilution,MRSA ATCC 43300,37 °C,> 134 µg/mL
C=C(NC(=O)C(=C)NC(=O)c1csc(C2=NC3c4csc(n4)C4NC(=O)c5csc(n5)C(C(C)(O)C(C)O)NC(=O)C5CSC(=N5)C(=CC)NC(=O)C(C(C)O)NC(=O)c5csc(n5)C3(CC2)NC(=O)C(C)NC(=O)C(=C)NC(=O)C(C(C)CC)NC2C=Cc3c(C(C)O)cc(nc3C2O)C(=O)OC4C)n1)C(N)=O (stereo not shown),broth microdilution,ATCC 10537 MRSA,"18 h, 37 °C",> 5 µg/mL
CC(C)c1ccc2c(c1)CCC1C(C)(CN(CC(O)C[N+](C)(C)C)CC(O)C[N+](C)(C)C)CCCC21C (stereo not shown),microbial growth,ATCCBAA44 MRSA,drug-resistant strain,312 µg/mL
COc1ccc2c(oc3c4ccc(O)cc4oc(=O)c23)c1CC=C(C)C,,,,inactive
CN1C(=O)[C@@H]2NC(=O)[C@@H]3NC(=O)[C@@H](c4ccc(O)cc4)NC(=O)[C@H](NC(=O)C(NCc4cccc(-c5ccc(F)cc5)c4)c4ccc(O)cc4)Cc4c[nH]c5cc(ccc45)-c4cc3cc(c4O)Oc3ccc(cc3)C[C@H]1C(=O)N[C@@H](C(=O)O)c1ccc(O)c(c1)Oc1ccc2cc1 (stereo partly shown),,"ATCC 33591 MRSA, Mueller-Hinton broth",,> 128 µg/mL
CC(C)C[C@@H]1NC(=O)[C@H](C)NC(=O)[C@H](C)NC(=O)[C@H](NC(=O)[C@H](CO)NC(=O)[C@@H](CCCCN)NC(=O)[C@@H](CC(C)C)NC(=O)[C@@H](N)Cc2ccccc2)[C@H](C(N)=O)OC1=O,,MSSA ATCC 29213,TFA salt,4 µg/mL
COc1cccc(C2Nc3ccccc3C3=[O+][Cu-2]4([Cl])[O]c5c(cccc5OC)C=[N+]4N32)c1O (stereo not shown),broth microdilution,MRSA clinical isolate SA 3202,"24 h, 37 °C",16 µg/mL
NCCCC[C@H](NC(=O)[C@H](CCCCN)NC(=O)[C@H](Cc1ccccc1)NC(=O)[C@@H]1CCCN1C(=O)[C@H](Cc1c[nH]c2ccccc12)NC(=O)[C@H](Cc1c[nH]c2ccccc12)NC(=O)[C@H](Cc1c[nH]c2ccccc12)NC(=O)[C@@H]1CCCN1C(=O)[C@H](Cc1ccccc1)NC(=O)[C@H](CCCCN)NC(=O)[C@@H](N)CCCCN)C(N)=O,,"MSSA RN 4220, RPMI medium","24 h, 37 °C",15 µM
CC[C@H](C)[C@H](NC(=O)[C@@H](Cc1ccccc1)NC)C(=O)N[C@@H](CO)C(=O)N[C@H](CCCNC(=N)N)C(=O)N[C@@H](C(=O)N[C@H](C(=O)N[C@@H](CO)C(=O)N[C@H]1C(=O)N[C@@H](C)C(=O)N[C@@H](CC(C)C)C(=O)N[C@@H]([C@@H](C)CC)C(=O)O[C@H]1C)[C@@H](C)CC)[C@@H](C)CC,broth microdilution,"ATCC 29213, MSSA, Mueller-Hinton broth","16 h, 37 °C",0.25 to 0.5 µg/mL
CC[C@H](C)[C@H](NC(=O)[C@H](CCCCN)NC(=O)[C@H](CC(N)=O)NC(=O)[C@H](CC(C)C)NC(=O)[C@H](Cc1ccccc1)NC(=O)[C@H](CCCCN)NC(=O)[C@H](CCCCNC(=N)N)NC(=O)[C@H](CC(C)C)NC(=O)[C@H](CC(C)C)NC(=O)[C@H](CCCCN)NC(=O)[C@H](CCCCNC(=N)N)NC(=O)[C@H](CC(C)C)NC(=O)CNC(C)=O)C(=O)N[C@@H](CCCCN)C(=O)N[C@@H](CCCCNC(=N)N)C(N)=O,broth microdilution,multidrug-resistant,,3.12 µM
CCCCc1ccc(N2C(=O)/C(=N\NC(=N)N)c3ccccc32)cc1,broth microdilution,BAA41 MRSA,"18 h, 37 °C",6 µg/mL
c1ccc(CCNC2CCCc3c2[nH]c2ccc(C4CCCCC4)cc32)cc1 (stereo not shown),broth microdilution,"ATCC 29213, cation-adjusted Mueller-Hinton broth",,2 µg/mL
COc1ccc2ccc3c(c2c1)C=[N+]1C2CCCCC2[N+]2=Cc4ccccc4[O][Au-]21[O]3.F[P-](F)(F)(F)(F)F (stereo not shown),"bacterial growth, broth microdilution",vancomycin-intermediate,24 h,20 µM
